Measurements pooled from the literature.
Numbers after ± are the reported error.

Compound	system	setting	tissue uptake
CSCC[C@H](NC(=O)[C@H](CC(C)C)NC(=O)[C@H](Cc1c[nH]cn1)NC(=O)CNC(=O)[C@@H](NC(=O)[C@H](C)NC(=O)[C@H](Cc1c[nH]c2ccccc12)NC(=O)[C@H](CCC(N)=O)NC(=O)CNC(=O)[C@H](CO)NC(=O)CNC(=O)CCCCCCCNC(=O)CCC(=O)Nc1ccc(CNC23CNCCNCC(N)(CNCCNC2)CNCCNC3)cc1)C(C)C)C(N)=O [copper-64 labelled]	female SCID mice, PC-3 xenograft, spleen	intravenous, 0.6 MBq, 1 h	1.51 ± 0.063 %ID/g
N=C(N)NCCC[C@@H]1NC(=O)[C@H](CC(=O)NC23CNCCNCC(N)(CNCCNC2)CNCCNC3)NC(=O)[C@@H](Cc2ccccc2)NC(=O)[C@H](CC(=O)O)NC(=O)CNC1=O [copper-64 labelled]	Nu/Nu mouse, male, tumour-bearing, blood	intravenous, 10 µCi, 24 h	0.08 ± 0.01 %ID/g
CCCC[C@H](NC(=O)CNC(=O)CNC(=O)c1ccc(NN)nc1)C(=O)N[C@H]1CC(=O)NCCCC[C@@H](C(N)=O)NC(=O)[C@H](Cc2c[nH]c3ccccc23)NC(=O)[C@H](CCCNC(=N)N)NC(=O)[C@@H](Cc2ccccc2)NC(=O)[C@H](Cc2c[nH]cn2)NC1=O [technetium-99m labelled]	C57 mouse, B16/F1 melanoma-bearing, liver	intravenous, 0.5 h	1.15 ± 0.08 %ID/g
N=C(N)NCCC[C@@H]1NC(=O)[C@H](CCCCNC(=O)CNC(=O)CNC(=O)CNC(=O)CC[C@H](NC(=O)c2ccc(NN=Cc3ccccc3S(=O)(=O)O)nc2)C(=O)NCC(=O)NCC(=O)NCC(=O)NCCCC[C@@H]2NC(=O)[C@@H](Cc3ccccc3)NC(=O)[C@H](CC(=O)O)NC(=O)CNC(=O)[C@H](CCCNC(=N)N)NC2=O)NC(=O)[C@@H](Cc2ccccc2)NC(=O)[C@H](CC(=O)O)NC(=O)CNC1=O [technetium-99m labelled]	athymic nu/nu mouse, female, U-87 MG glioma xenograft, tumour	intravenous, 2 µCi, 60 min	11 ± 2.34 %ID/g
N=C(N)NCCC[C@@H]1NC(=O)[C@H](CCCCNC(=O)CCOCCOCCOCCOCCNC(=O)CC[C@H](NC(=O)CCOCCOCCOCCOCCNC(=O)CC[C@H](NC(=O)CN2CCN(CC(=O)O)CCN(CC(=O)O)CCN(CC(=O)O)CC2)C(=O)NCCOCCOCCOCCOCCC(=O)N[C@@H](CCC(=O)NCCOCCOCCOCCOCCC(=O)NCCCC[C@@H]2NC(=O)[C@@H](Cc3ccccc3)NC(=O)[C@H](CC(=O)O)NC(=O)CNC(=O)[C@H](CCCNC(=N)N)NC2=O)C(=O)NCCOCCOCCOCCOCCC(=O)NCCCC[C@@H]2NC(=O)[C@@H](Cc3ccccc3)NC(=O)[C@H](CC(=O)O)NC(=O)CNC(=O)[C@H](CCCNC(=N)N)NC2=O)C(=O)NCCOCCOCCOCCOCCC(=O)NCCCC[C@@H]2NC(=O)[C@@H](Cc3ccccc3)NC(=O)[C@H](CC(=O)O)NC(=O)CNC(=O)[C@H](CCCNC(=N)N)NC2=O)NC(=O)[C@@H](Cc2ccccc2)NC(=O)[C@H](CC(=O)O)NC(=O)CNC1=O [indium-111 labelled]	female athymic nude mice, blood	intravenous, 3 µCi, 1 h, U-87 MG glioma xenograft	0.29 ± 0.14 %ID/g
CSCC[C@H](NC(=O)[C@H](CC(C)C)NC(=O)[C@H](Cc1c[nH]cn1)NC(=O)CNC(=O)[C@@H](NC(=O)[C@H](C)NC(=O)[C@H](Cc1c[nH]c2ccccc12)NC(=O)[C@H](CCC(N)=O)NC(=O)CCCCCNC(=O)CNC(=O)CNC(=O)CNC(=O)CSC(C)=O)C(C)C)C(N)=O [technetium-99m labelled]	nude mouse, PC-3 xenograft, heart	90 min	0.1 ± 0.01 %ID/g
N=C(N)NCCC[C@@H]1NC(=O)[C@H](CCCCNC(=O)CC[C@H](NC(=O)CCOCCOCCOCCOCCNC(=O)CC[C@H](NC(=O)CN2CCN(CC(=O)O)CCN(CC(=O)O)CCN(CC(=O)O)CC2)C(=O)NCCOCCOCCOCCOCCC(=O)N[C@@H](CCC(=O)NCCCC[C@@H]2NC(=O)[C@@H](Cc3ccccc3)NC(=O)[C@H](CC(=O)O)NC(=O)CNC(=O)[C@H](CCCNC(=N)N)NC2=O)C(=O)NCCCC[C@@H]2NC(=O)[C@@H](Cc3ccccc3)NC(=O)[C@H](CC(=O)O)NC(=O)CNC(=O)[C@H](CCCNC(=N)N)NC2=O)C(=O)NCCCC[C@@H]2NC(=O)[C@@H](Cc3ccccc3)NC(=O)[C@H](CC(=O)O)NC(=O)CNC(=O)[C@H](CCCNC(=N)N)NC2=O)NC(=O)[C@@H](Cc2ccccc2)NC(=O)[C@H](CC(=O)O)NC(=O)CNC1=O [indium-111 labelled]	athymic nude mice, female, U-87 MG glioma xenograft, spleen	intravenous, 3 µCi, 24 h	1.22 ± 0.44 %ID/g
CCCC[C@H](NC(=O)CCCCCCCNC(=O)c1ccc(NN)nc1)C(=O)N[C@H]1CC(=O)NCCCC[C@@H](C(N)=O)NC(=O)[C@H](Cc2c[nH]c3ccccc23)NC(=O)[C@H](CCCNC(=N)N)NC(=O)[C@@H](Cc2ccccc2)NC(=O)[C@H](Cc2c[nH]cn2)NC1=O [technetium-99m labelled]	C57 mouse, B16/F1 melanoma, intestines	intravenous, 0.037 MBq, 4 h	3.43 ± 0.76 %ID
N=C(N)NCCC[C@@H]1NC(=O)[C@H](CCCCNC(=O)CCOCCOCCOCCOCCNC(=O)CN2CCN(CC(=O)O)CCN(CC(=O)O)CCN(CC(=O)O)CC2)NC(=O)[C@@H](Cc2ccccc2)NC(=O)[C@H](CC(=O)O)NC(=O)CNC1=O [indium-111 labelled]	female athymic nude mice, kidney	intravenous, 3 µCi, 1 h, U-87 MG glioma xenograft	3.93 ± 0.09 %ID/g
C[C@@H](O)[C@H](NC(=O)[C@@H]1CSSC[C@H](NC(=O)[C@@H](Cc2ccccc2)NC(=O)CN2CCCN3CCN(CCCN(CP(=O)(O)O)CC3)CC2)C(=O)N[C@@H](Cc2ccc(O)cc2)C(=O)N[C@H](Cc2c[nH]c3ccccc23)C(=O)N[C@@H](CCCCN)C(=O)N[C@@H]([C@@H](C)O)C(=O)N1)C(=O)O [copper-64 labelled]	male Lewis rat, pituitary	0.74 MBq, 4 h	7.5 ± 1.1 %ID/g

Excerpt of the above:
Compound	system	setting	tissue uptake
C[C@@H](O)[C@H](NC(=O)[C@@H]1CSSC[C@H](NC(=O)[C@@H](Cc2ccccc2)NC(=O)CN2CCCN3CCN(CCCN(CP(=O)(O)O)CC3)CC2)C(=O)N[C@@H](Cc2ccc(O)cc2)C(=O)N[C@H](Cc2c[nH]c3ccccc23)C(=O)N[C@@H](CCCCN)C(=O)N[C@@H]([C@@H](C)O)C(=O)N1)C(=O)O [copper-64 labelled]	male Lewis rat, pituitary	0.74 MBq, 4 h	7.5 ± 1.1 %ID/g
